Measured values collected from several papers.
Each line is one published result; not all experiments were run side by side. Several values in a cell are separate wells, animals, samples, runs or records. ± gives the spread as reported.
PPARG ligand-binding domain: Peroxisome proliferator-activated receptor gamma, ligand-binding domain (PPARG, Homo sapiens, UniProt P37231)
Sequence of UniProt P37231 (whole entry, looked up): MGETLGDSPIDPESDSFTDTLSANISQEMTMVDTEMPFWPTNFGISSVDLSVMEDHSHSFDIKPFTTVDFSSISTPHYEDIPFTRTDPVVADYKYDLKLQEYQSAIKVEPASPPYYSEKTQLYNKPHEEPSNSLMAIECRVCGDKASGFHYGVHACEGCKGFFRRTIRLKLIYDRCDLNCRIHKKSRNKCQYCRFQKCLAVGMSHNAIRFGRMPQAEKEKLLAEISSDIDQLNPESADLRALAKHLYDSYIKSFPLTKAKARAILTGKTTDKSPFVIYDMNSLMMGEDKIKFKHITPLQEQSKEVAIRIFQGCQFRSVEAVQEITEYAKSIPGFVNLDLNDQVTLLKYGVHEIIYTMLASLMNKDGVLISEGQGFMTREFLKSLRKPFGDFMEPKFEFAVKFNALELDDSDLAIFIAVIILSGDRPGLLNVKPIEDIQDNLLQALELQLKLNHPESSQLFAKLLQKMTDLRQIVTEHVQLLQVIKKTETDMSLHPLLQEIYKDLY
Rhomboid protease AarA: Rhomboid protease AarA (Providencia stuartii, UniProt P46116)
Sequence of UniProt P46116 (whole entry, looked up): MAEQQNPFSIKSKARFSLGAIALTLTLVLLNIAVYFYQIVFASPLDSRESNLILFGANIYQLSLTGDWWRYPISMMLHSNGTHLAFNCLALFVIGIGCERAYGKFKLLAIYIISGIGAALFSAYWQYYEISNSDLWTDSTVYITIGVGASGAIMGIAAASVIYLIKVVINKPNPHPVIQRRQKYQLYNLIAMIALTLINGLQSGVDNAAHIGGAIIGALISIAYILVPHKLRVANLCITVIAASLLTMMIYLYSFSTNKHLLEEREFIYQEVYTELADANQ
PPARG: Peroxisome proliferator-activated receptor gamma (PPARG, Homo sapiens, UniProt P37231)
MCL1: Induced myeloid leukemia cell differentiation protein Mcl-1 (MCL1, Homo sapiens, UniProt Q07820)
Sequence of UniProt Q07820 (whole entry, looked up): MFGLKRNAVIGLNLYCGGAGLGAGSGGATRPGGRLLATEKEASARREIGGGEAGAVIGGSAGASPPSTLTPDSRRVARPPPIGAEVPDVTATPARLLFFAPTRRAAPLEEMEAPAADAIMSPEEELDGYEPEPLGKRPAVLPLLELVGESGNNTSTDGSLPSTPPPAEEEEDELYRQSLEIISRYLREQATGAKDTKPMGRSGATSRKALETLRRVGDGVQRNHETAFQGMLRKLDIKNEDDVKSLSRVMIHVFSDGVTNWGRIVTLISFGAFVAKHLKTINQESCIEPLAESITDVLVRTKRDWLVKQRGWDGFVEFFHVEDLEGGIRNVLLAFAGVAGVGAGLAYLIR
Melanoma-associated antigen 4 MAGE homology domain: Melanoma-associated antigen 4, MAGE homology domain (Homo sapiens, UniProt P43358)
Sequence of UniProt P43358 (whole entry, looked up): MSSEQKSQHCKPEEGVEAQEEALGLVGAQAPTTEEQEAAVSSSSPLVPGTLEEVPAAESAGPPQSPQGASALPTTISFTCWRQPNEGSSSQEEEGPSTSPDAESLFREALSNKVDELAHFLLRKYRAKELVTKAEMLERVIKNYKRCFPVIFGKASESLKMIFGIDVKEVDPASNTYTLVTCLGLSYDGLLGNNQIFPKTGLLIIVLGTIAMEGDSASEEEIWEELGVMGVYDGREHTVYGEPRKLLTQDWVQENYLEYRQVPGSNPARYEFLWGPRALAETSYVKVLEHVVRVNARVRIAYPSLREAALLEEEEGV
HDAC1: Histone deacetylase 1 (HDAC1, Homo sapiens, UniProt Q13547)
Sequence of UniProt Q13547 (whole entry, looked up): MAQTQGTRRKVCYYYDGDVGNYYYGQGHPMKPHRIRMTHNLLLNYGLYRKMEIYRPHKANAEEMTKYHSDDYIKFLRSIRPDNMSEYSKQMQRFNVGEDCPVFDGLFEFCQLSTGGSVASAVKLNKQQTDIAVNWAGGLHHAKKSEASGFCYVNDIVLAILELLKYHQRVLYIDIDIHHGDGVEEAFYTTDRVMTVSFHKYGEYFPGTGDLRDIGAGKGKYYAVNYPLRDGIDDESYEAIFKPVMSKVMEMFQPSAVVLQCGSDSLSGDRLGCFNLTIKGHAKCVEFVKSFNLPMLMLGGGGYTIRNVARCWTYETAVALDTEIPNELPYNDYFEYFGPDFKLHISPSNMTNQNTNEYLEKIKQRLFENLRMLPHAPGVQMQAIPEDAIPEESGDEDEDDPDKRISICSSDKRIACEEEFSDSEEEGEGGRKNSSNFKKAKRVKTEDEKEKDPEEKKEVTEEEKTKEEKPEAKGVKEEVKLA
CCR5: C-C chemokine receptor type 5 (CCR5, Homo sapiens, UniProt P51681)
Sequence of UniProt P21741 (whole entry, looked up): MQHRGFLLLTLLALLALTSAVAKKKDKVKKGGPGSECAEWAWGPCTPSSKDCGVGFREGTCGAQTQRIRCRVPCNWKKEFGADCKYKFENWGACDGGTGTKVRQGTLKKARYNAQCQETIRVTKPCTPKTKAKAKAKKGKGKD
Sequence of UniProt P51681 (whole entry, looked up): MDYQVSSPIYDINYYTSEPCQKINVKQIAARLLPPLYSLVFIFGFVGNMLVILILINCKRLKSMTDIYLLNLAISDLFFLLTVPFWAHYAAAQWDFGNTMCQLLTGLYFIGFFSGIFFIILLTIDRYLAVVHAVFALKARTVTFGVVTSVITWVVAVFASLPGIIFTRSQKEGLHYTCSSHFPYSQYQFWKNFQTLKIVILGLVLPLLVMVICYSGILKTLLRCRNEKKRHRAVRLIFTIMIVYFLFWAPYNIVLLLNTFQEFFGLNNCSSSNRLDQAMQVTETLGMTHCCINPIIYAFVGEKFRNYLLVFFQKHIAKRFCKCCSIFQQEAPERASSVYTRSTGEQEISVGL
Sequence of UniProt Q9P1W9 (whole entry, looked up): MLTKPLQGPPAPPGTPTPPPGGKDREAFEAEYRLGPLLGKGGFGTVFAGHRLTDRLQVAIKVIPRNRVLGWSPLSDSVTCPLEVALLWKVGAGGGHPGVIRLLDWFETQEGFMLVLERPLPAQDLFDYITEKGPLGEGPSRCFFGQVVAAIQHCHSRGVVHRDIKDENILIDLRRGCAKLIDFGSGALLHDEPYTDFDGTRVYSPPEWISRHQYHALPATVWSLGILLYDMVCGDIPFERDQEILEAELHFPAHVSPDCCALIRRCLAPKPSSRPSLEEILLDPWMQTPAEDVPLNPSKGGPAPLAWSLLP
Sequence of UniProt O08914 (whole entry, looked up): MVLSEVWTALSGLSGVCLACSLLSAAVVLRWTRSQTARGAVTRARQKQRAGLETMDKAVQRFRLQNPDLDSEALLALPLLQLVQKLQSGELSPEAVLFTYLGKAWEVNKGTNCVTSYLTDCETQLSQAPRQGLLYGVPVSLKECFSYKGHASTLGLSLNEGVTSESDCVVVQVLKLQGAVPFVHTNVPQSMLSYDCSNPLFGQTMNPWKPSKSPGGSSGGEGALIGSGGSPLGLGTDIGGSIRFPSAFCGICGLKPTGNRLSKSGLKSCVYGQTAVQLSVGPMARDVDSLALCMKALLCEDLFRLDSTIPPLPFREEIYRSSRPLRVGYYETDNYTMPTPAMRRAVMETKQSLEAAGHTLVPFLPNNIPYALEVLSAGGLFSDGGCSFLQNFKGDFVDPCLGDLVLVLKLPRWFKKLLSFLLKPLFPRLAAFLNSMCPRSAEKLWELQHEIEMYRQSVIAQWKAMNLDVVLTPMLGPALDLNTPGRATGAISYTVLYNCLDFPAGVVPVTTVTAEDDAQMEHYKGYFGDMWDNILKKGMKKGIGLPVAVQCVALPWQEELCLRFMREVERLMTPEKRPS
Sequence of UniProt P08172 (whole entry, looked up): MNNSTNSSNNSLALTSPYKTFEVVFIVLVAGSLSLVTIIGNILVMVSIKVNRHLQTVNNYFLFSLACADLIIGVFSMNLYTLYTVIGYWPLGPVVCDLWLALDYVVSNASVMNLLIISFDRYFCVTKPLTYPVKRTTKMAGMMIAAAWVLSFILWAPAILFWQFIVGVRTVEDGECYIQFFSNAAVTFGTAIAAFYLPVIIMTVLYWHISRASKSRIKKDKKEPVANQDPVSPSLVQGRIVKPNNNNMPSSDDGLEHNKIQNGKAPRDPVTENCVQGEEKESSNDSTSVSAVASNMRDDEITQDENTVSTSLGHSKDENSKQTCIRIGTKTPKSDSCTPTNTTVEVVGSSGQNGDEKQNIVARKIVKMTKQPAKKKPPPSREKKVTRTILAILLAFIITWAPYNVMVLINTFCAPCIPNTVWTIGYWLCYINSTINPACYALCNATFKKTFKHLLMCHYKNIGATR
Sequence of UniProt Q9NR20 (whole entry, looked up): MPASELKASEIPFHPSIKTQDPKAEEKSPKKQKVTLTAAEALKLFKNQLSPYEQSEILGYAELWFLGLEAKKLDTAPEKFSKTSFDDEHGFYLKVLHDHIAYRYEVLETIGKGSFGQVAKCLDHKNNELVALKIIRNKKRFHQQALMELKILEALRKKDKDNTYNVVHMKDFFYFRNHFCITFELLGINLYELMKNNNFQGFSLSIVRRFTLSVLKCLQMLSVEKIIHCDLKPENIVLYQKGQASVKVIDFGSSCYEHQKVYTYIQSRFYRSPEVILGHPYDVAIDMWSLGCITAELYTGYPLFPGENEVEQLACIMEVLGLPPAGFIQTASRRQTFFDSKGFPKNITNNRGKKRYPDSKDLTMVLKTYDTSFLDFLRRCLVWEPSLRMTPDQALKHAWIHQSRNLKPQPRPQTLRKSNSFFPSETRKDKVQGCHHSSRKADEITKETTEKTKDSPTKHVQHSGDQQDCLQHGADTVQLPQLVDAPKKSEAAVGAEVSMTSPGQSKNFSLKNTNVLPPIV
Sequence of UniProt P07711 (whole entry, looked up): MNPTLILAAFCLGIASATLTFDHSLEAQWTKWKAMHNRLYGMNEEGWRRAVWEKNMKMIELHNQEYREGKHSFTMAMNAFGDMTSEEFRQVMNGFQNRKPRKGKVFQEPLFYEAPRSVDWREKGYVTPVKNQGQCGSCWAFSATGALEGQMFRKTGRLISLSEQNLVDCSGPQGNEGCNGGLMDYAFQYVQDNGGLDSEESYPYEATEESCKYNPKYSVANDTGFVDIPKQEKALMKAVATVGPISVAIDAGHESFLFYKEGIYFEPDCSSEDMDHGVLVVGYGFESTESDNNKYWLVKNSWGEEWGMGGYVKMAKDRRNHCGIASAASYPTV

For Cc1c(Cc2ccc(OC(C)(C)C(=O)O)cc2)c2ccc(C(=O)N[C@@H](C)c3cccc(C(C)(C)C)c3)cc2n1C, the IC50 was 0.74 µM (PPARG ligand-binding domain; reporter gene, luciferase reporter; HEK293T, Gal4-PPARγ LBD).
N#CN1CC[C@H](C(=O)Nc2ncc(N3CCOCC3)s2)C1 gave an IC50 of 10.7 µM (Papain (Carica papaya, UniProt P00784); enzyme activity, inhibitor, fluorescence).
The IC50 of Cc1cccc(NC(=O)C(C(F)(F)F)C(F)(F)F)c1 is reported as 18 µM (Rhomboid protease AarA; enzyme activity, inhibitor, fluorogenic peptide).
Cc1c(Cc2ccc(Cl)c(O[C@H](C)C(=O)O)c2)c2ccc(C(=O)N[C@@H](C)c3ccc(C(C)(C)C)cc3)cc2n1CC(C)C has an IC50 of 0.00043 µM (PPARG; ligand displacement, TR-FRET).
For O=C(Nc1cccc(Cl)c1)C(C(F)(F)F)C(F)(F)F, the IC50 was 10 µM (Rhomboid protease AarA; enzyme activity, inhibitor, fluorescence).
CC1(C)CCC(CN2CCN(c3ccc(C(=O)NS(=O)(=O)c4ccc(NCC5CCOCC5)c([N+](=O)[O-])c4)c(Oc4cnc5[nH]ccc5c4)c3)CC2)=C(c2ccc(Cl)cc2)C1 has an IC50 of > 200 µM (MCL1; binding, inhibitor, fluorescence polarization; with: labeled Bid-BH3 peptide).
The IC50 of COc1cc2c(c(OC)c1OC)-c1c(cc3c(c1OC)OCO3)CC(C)C(C)C2 (centres unmarked) is reported as 2.55 µM (CYP3A, rat; poziotinib metabolism to M1, inhibitor; rat liver microsomes, 0.3 mg/mL; 30 min, with: poziotinib 5 µM).
CC[C@H](C)[C@@H]1NC(=O)[C@H](Cc2ccc(O)cc2)NC(=O)CSC[C@@H](C(N)=O)NC(=O)[C@H](CC(N)=O)NC(=O)[C@H](Cc2c[nH]cn2)NC(=O)[C@H](Cc2ccc(O)cc2)NC(=O)[C@H]([C@@H](C)O)NC(=O)[C@H](Cc2ccc(O)cc2)NC(=O)[C@H](CC(C)C)NC(=O)[C@H](CCCNC(=N)N)NC1=O gave an IC50 of 2.61 ± 0.53 µM (Melanoma-associated antigen 4 MAGE homology domain; binding, inhibitor, TR-FRET displacement; with: Alexa647-MTP-1).
For O=C(Nc1cccnc1)C(C(F)(F)F)C(F)(F)F, the IC50 was 37 µM (Rhomboid protease AarA; enzyme activity, inhibitor, fluorescence).
For Cc1c(Cc2ccc(Cl)c(OC(C)C(=O)O)c2)c2ccc(C(=O)NCc3ccc(C(C)(C)C)cc3)cc2n1CC(C)C (centres unmarked), the IC50 was 0.00193 µM (PPARG; ligand displacement, TR-FRET).
With CC[C@H](C)[C@@H]1NC(=O)[C@H](Cc2ccc(O)cc2)NC(=O)CSC[C@@H](C(N)=O)NC(=O)[C@H](CC(N)=O)NC(=O)[C@H](Cc2c[nH]cn2)NC(=O)[C@H](Cc2ccc(O)cc2)NC(=O)[C@H](CC(=O)O)NC(=O)[C@H](Cc2ccc(F)cc2)NC(=O)[C@H](CC(C)C)NC(=O)[C@H](CCCNC(=N)N)NC1=O the IC50 was 0.0132 ± 0.0055 µM (Melanoma-associated antigen 4 MAGE homology domain; binding, inhibitor, TR-FRET displacement; with: Alexa647-MTP-1).
With Cc1c(Cc2cccc(OC(C)(C)C(=O)O)c2)c2ccc(C(=O)N[C@H](C)c3cccc(C(C)(C)C)c3)cc2n1C the IC50 was 43.5 µM (PPARG ligand-binding domain; reporter gene, luciferase reporter; HEK293T, Gal4-PPARγ LBD).
The IC50 of OB(O)c1sccc1/C=N/OCc1ccccc1 is reported as > 100 µM (Plasma kallikrein (KLKB1, Homo sapiens, UniProt P03952); enzyme activity, inhibitor).
The IC50 of Cc1nc2c(F)cc(-c3nc(Nc4ccc(C(=O)NCCCCCCCC(=O)NO)cc4)ncc3F)cc2n1C(C)C is reported as 0.011 µM (HDAC1; enzyme activity, inhibitor).
The IC50 of Cc1nnc(C(C)C)n1C1CC2CCC(C1)N2CCC(NC(=O)COCCOCCOCCOCCNC(=O)Cc1ccc(-c2nncnn2)cc1)c1ccccc1 (centres unmarked) is reported as 0.0295 µM (CCR5; calcium mobilization, antagonist; HEK-293T; 2 h preincubation, top constrained to 1, with: 0.1 µM PSC-RANTES).
For C=CC(=O)Nc1cccc(Cn2ncc3cnc(Nc4cnn(CCOC)c4)nc32)c1, “percent of control” read 84% (MKNK1 human; binding, KINOMEscan; 100 nM; lower = stronger binding).
For CCOC(=O)/C=C/C(=O)[C@H](CC(C)C)NC(=O)[C@H](Cc1ccccc1)NC(=O)[C@H](Cc1ccccc1)n1cc(CCCCC2=C3C(C)=CC(C)=[N+]3[B-](F)(F)n3c(C)cc(C)c32)nn1 (mixture of isomers), the IC50 was 3.14 µM (Procathepsin L (CTSL, Homo sapiens, UniProt P07711); enzyme activity, inhibitor).
With O=C(CCCCCCc1ccccc1)c1ncc(-c2ccc(CBr)cn2)o1 the IC50 was < 0.01 µM (Fatty-acid amide hydrolase 1 (Faah, Mus musculus, UniProt O08914); enzyme activity, inhibitor; with preincubation).
With Nc1ncc(-c2cc(-c3cnn(CC(F)(F)F)c3)ncc2F)nc1C(=O)NC1CNCC(F)C1 (centres unmarked) the remaining binding was 52% (MEK2; KINOMEscan; 1 µM; baseline: DMSO control).
O=C(CCNC(=O)CNC(=O)CC(c1ccccc1)(c1ccccc1)c1ccccc1)NC[C@H]1CCCN(C(=O)c2ccc(F)cc2)C1 gave an IC50 of > 30 µM (Muscarinic acetylcholine receptor M2 (CHRM2, Homo sapiens, UniProt P08172); ligand displacement, radioligand; cell membranes).
Cc1cc(NC2CCN(C)CC2)ccc1-c1cc2c(N3CCC[C@H](C(=O)NCc4ccc(OC(F)(F)F)cc4)C3)ncnc2[nH]1 has an IC50 of > 8 µM (Ribosomal protein S6 kinase alpha-5 (RPS6KA5, Homo sapiens, UniProt O75582); enzyme activity, inhibitor, mobility shift).
For COC1CN([C@H]2CC[C@H]([C@@]3(C)Oc4c(Cl)cc(C(=O)NCc5c(SC)cc(C)[nH]c5=O)c(C)c4O3)CC2)C1, “log2 fold change” read 0.527 (RNA-seq, refers to: NAALAD2 mouse homolog; mouse, HT-1376 xenograft, whole blood; dose not given; baseline: vehicle).
The IC50 of Cc1nc2c(F)cc(-c3nc(Nc4cccc(NC(=O)CCCCCCC(=O)NO)c4)ncc3F)cc2n1C(C)C is reported as 0.0045 µM (HDAC1; enzyme activity, inhibitor).
For Cc1ccc(NC(=O)C(C(F)(F)F)C(F)(F)F)cc1, the IC50 was 11 µM (Rhomboid protease AarA; enzyme activity, inhibitor, fluorescence).
CCN(CC)CC(=O)Nc1cccc(-n2cc(-c3ccc4ccc(-c5cn(-c6cccc(NC(=O)CN(CC)CC)c6)nn5)cc4c3)nn2)c1 has an IC50 of > 10 µM (Serine/threonine-protein kinase pim-2 (PIM2, Homo sapiens, UniProt Q9P1W9); enzyme activity, inhibitor).
With CN1CCN(C(=O)c2ccc(-c3cc4nccc(-c5ccc6cnccc6c5)c4o3)cc2)CC1 the IC50 was > 10 µM (Serine/threonine-protein kinase TBK1 (TBK1, Homo sapiens, UniProt Q9UHD2); enzyme activity, inhibitor).
For Cc1c(Cc2cccc(OC(C)(C)C(=O)O)c2)c2ccc(C(=O)N[C@@H](C)c3cccc(C(C)(C)C)c3)cc2n1C(C)C, the IC50 was 0.003 µM (PPARG; ligand displacement, TR-FRET).
CC(C)Oc1cc(C(=O)NCC(=O)O)ccc1NC(=O)[C@H](Cc1ccccc1)NC(=O)c1ccc(N)cc1OCc1ccccc1 has an IC50 of > 100 µM (MCL1; fluorescence anisotropy competition; pH 7.50, with: FITC-NOXA B tracer).
Cc1c(Cc2cccc(OC(C)(C)C(=O)O)c2)c2ccc(C(=O)N[C@@H](C)c3cccc(C(C)(C)C)c3)cc2n1CC(C)(C)C gave an IC50 of 5.51 µM (PPARG ligand-binding domain; reporter gene, luciferase reporter; HEK293T, Gal4-PPARγ LBD).
With COc1ccc(Nc2cc(NC3CC3)n3ncc(C#N)c3n2)cc1 the IC50 was 0.72 µM (Dual specificity tyrosine-phosphorylation-regulated kinase 2 (DYRK2, Homo sapiens, UniProt Q92630); inhibitor).
For CN(C)CCN1CCN(CCCN2c3ccccc3Sc3ccc(C(F)(F)F)cc32)CC1, the IC50 was 2.1 µM (Voltage-gated inwardly rectifying potassium channel KCNH2 (KCNH2, Homo sapiens, UniProt Q12809)).
For CCCSc1nc(Sc2nnc(N)s2)c2nnn(CCO)c2n1, the IC50 was 2.1 µM (Lysine-specific histone demethylase 1A (KDM1A, Homo sapiens, UniProt O60341); enzyme activity, inhibitor, fluorescence).
For Cc1c(Cc2cccc(OC(C)(C)C(=O)O)c2)c2ccc(C(=O)N[C@@H](C)c3ccc(C(C)C)cc3)cc2n1C, the IC50 was 0.002 µM (PPARG; ligand displacement, TR-FRET).
With O=C1CC(c2ccccc2)N1S(=O)(=O)c1cccc(-c2ccccc2)c1 (centres unmarked) the IC50 was 13 µM (Rhomboid protease AarA; enzyme activity, inhibitor, fluorogenic peptide; 68 min pre-incubation).
With Cc1ccc(C(F)(F)CNC(=O)c2cc(Cl)nnc2Oc2cccc(C(F)(F)F)c2)c(C)c1 the IC50 was 0.168 ± 0.045 µM (serine palmitoyltransferase (Zymoseptoria tritici, UniProt F9X349+F9XMN6)).
Cc1c(Cc2cccc(OC(C)C(=O)O)c2)c2ccc(C(=O)NC(C)c3cccc(C4CC4)c3)cc2n1C (mixture of isomers) gave an IC50 of 2.06 µM (PPARG ligand-binding domain; reporter gene, luciferase reporter; HEK293T, Gal4-PPARγ LBD).
With Cc1nnc(-c2ccc(CC(=O)NCCOCCOCC(=O)NC(CCN3C4CCC3CC(n3c(C)nnc3C(C)C)C4)c3ccccc3)cc2)nn1 (centres unmarked) the IC50 was 0.427 µM (CCR5; calcium mobilization, antagonist; HEK-293T; 2 h preincubation, top constrained to 1, with: 0.1 µM PSC-RANTES).
CC[C@H](C)[C@@H]1NC(=O)[C@H](Cc2ccc(O)cc2)NC(=O)CSC[C@@H](C(N)=O)NC(=O)[C@H](CC(N)=O)NC(=O)[C@H](Cc2c[nH]cn2)NC(=O)[C@H](Cc2ccc(O)cc2)NC(=O)[C@H](CC(=O)O)NC(=O)[C@H](Cc2ccc(F)c(F)c2)NC(=O)[C@H](CC(C)C)NC(=O)[C@H](CCCNC(=N)N)NC1=O gave an IC50 of 0.0112 ± 0.0041 µM (Melanoma-associated antigen 4 MAGE homology domain; binding, inhibitor, TR-FRET displacement; with: Alexa647-MTP-1).
CC(C)(Oc1ccc(Cl)cc1)C(=O)O gave an IC50 of 440 µM (Taste receptor type 1 member 3, with T1R1 (TAS1R3, Homo sapiens, UniProt Q7RTX0, A733V)).
For Cc1nc2c(F)cc(-c3nc(Nc4ccc(NC(=O)CCCCCC(=O)NO)cc4)ncc3F)cc2n1C(C)C, the IC50 was 0.017 µM (HDAC1; enzyme activity, inhibitor).
The IC50 of Cc1cc(C)nc(NC(=S)N2CCN(c3ccncc3)CC2)c1 is reported as > 100 µM (Glyceraldehyde-3-phosphate dehydrogenase (GAPDH, Homo sapiens, UniProt P04406); enzyme activity, inhibitor).
For COc1ccc(NC(=O)C(C(F)(F)F)C(F)(F)F)cc1, the IC50 was 22 µM (Rhomboid protease AarA; enzyme activity, inhibitor, fluorescence).
COc1cc(OC)c2c(=O)cc(-c3cc(C)c(OCCCN4CCN(C)CC4)c(C)c3)oc2c1 gave an IC50 of > 10 µM (CREB-binding protein (CREBBP, Homo sapiens, UniProt Q92793); cell-free assay, TR-FRET).
With COc1ccccc1CNC(=O)C(C(F)(F)F)C(F)(F)F the IC50 was 8 µM (Rhomboid protease AarA; enzyme activity, inhibitor, fluorescence).
With Cc1nn(-c2cccc(N)c2)c(=O)c2cnc(Nc3ccc(N4CCNCC4)cc3)nc12 the IC50 was > 10 µM (Dual specificity tyrosine-phosphorylation-regulated kinase 4 (DYRK4, Homo sapiens, UniProt Q9NR20); enzyme activity, inhibitor).
CC(=O)NCCNC(=O)c1ccccc1NC(=O)C(C(F)(F)F)C(F)(F)F gave an IC50 of 36 µM (Rhomboid protease AarA; enzyme activity, inhibitor, fluorescence).
COc1ccc(O[C@@H]2O[C@H](COS(=O)(=O)O)[C@H](OS(=O)(=O)O)[C@H](O[C@@H]3O[C@H](C(=O)OCc4ccccc4)[C@@H](O[C@@H]4O[C@H](COS(=O)(=O)O)[C@H](OS(=O)(=O)O)[C@H](O[C@@H]5O[C@H](C(=O)OCc6ccccc6)[C@@H](OS(=O)(=O)O)[C@H](OCc6ccccc6)[C@H]5OC(=O)c5ccccc5)[C@H]4NC(=O)C(F)(F)F)[C@H](OCc4ccccc4)[C@H]3OC(=O)c3ccccc3)[C@H]2NC(=O)C(F)(F)F)cc1 gave an IC50 of 3.4 µM and 4.6 µM and 3.5 µM (Midkine (Homo sapiens, UniProt P21741); heparin hexasaccharide binding, fluorescence polarisation competition; with: fluorescein-labelled hexasaccharide probe).

Excerpt of the above:
With COc1ccccc1CNC(=O)C(C(F)(F)F)C(F)(F)F the IC50 was 8 µM (Rhomboid protease AarA; enzyme activity, inhibitor, fluorescence).
With Cc1nn(-c2cccc(N)c2)c(=O)c2cnc(Nc3ccc(N4CCNCC4)cc3)nc12 the IC50 was > 10 µM (Dual specificity tyrosine-phosphorylation-regulated kinase 4 (DYRK4, Homo sapiens, UniProt Q9NR20); enzyme activity, inhibitor).
CC(=O)NCCNC(=O)c1ccccc1NC(=O)C(C(F)(F)F)C(F)(F)F gave an IC50 of 36 µM (Rhomboid protease AarA; enzyme activity, inhibitor, fluorescence).
